Experimental data pooled from the literature.
± gives the spread as reported.

CSCC[C@H](NC(=O)CNC(=O)[C@H](CC(=O)O)NC(=O)[C@@H](NC(=O)[C@@H](NC(=O)[C@@H](NC(=O)CNC(=O)[C@H](CCC(N)=O)NC(=O)[C@H](CCSC)NC(=O)[C@H](CC(=O)O)NC(=O)[C@H](C)NC(=O)[C@H](C)NC(=O)[C@@H](NC(=O)[C@H](CO)NC(=O)[C@@H](N)CC(C)C)[C@@H](C)O)C(C)C)C(C)C)[C@@H](C)O)C(=O)N[C@@H](C)C(=O)N[C@@H](CO)C(=O)NCC(=O)N[C@@H](CC(C)C)C(=O)N[C@@H](CC(=O)O)C(=O)N[C@@H](CCCCN)C(=O)N[C@@H](CC(=O)O)C(=O)N[C@@H](Cc1ccc(O)cc1)C(=O)N[C@@H](CC(C)C)C(=O)N[C@@H](CCCCN)C(=O)N1CCC[C@H]1C(=O)N[C@@H](CC(=O)O)C(=O)N[C@@H](CC(=O)O)C(=O)O
distribution half-life (human patients, serum; intravenous infusion, 5 mg/kg): 36 s

[2H]C([2H])([2H])C([2H])([2H])C([2H])([2H])OC(C(=O)OC1CCNCC1)(c1ccccc1)c1ccccc1
adverse events (item: C-reactive protein increased; healthy Japanese male; oral, 12 mg once daily, 16 days): 14.3%

CC[C@@H](C)[C@H](NC(=O)[C@H](C)NC(=O)[C@H](CCCCN)NC(=O)[C@H](CC(C)C)NC(=O)[C@H](C)NC(=O)[C@@H](NC(=O)[C@H](Cc1c[nH]cn1)NC(=O)[C@H](CC(C)C)NC(=O)[C@@H](NC(=O)[C@@H](NC(=O)[C@H](CCCCN)NC(=O)[C@H](CCCCN)NC(=O)[C@H](C)NC(=O)[C@H](CO)NC(=O)[C@H](CCCCN)NC(=O)[C@H](Cc1ccccc1)NC(=O)[C@@H](NC(=O)[C@H](CCCCN)NC(=O)[C@H](CC(C)C)NC(=O)[C@H](Cc1ccccc1)NC(=O)[C@H](CO)NC(=O)[C@H](CCCCN)NC(=O)[C@H](Cc1c[nH]c2ccccc12)NC(=O)[C@H](CCCCN)NC(C)=O)[C@@H](C)O)[C@@H](C)O)C(C)C)[C@@H](C)O)C(=O)N[C@@H](CO)C(=O)N[C@@H](CO)C(N)=O
retention time (RP-HPLC; Zorbax 300 SB-C18 column; 65 °C): 26.3 min

CSCC[C@H](NC(=O)[C@H](CC(N)=O)NC(=O)[C@@H](N)Cc1ccccc1)C(=O)N[C@@H](CCC(N)=O)C(=O)N[C@@H](C)C(=O)N[C@@H](CCC(N)=O)C(=O)N[C@@H](CCCNC(=N)N)C(=O)N[C@@H](CCCNC(=N)N)C(=O)N[C@@H](Cc1ccccc1)C(=O)N[C@@H](Cc1ccc(O)cc1)C(=O)N[C@@H](CCC(=O)O)C(=O)N[C@@H](C)C(=O)N[C@@H](CC(C)C)C(=O)N[C@@H](Cc1c[nH]cn1)C(=O)N[C@@H](CC(=O)O)C(=O)NCC(=O)NCC(=O)NCC(=O)NCC(=O)N[C@@H](CO)C(=O)N[C@@H](C)C(=O)N[C@@H](CCC(=O)O)C(=O)N[C@@H](C)C(=O)N[C@@H](CCC(=O)O)C(=O)N[C@@H](C)C(=O)N[C@@H](CCCCN)C(=O)N[C@@H](C)C(=O)N[C@@H](CCCCN)C(=O)N[C@@H](C)C(=O)N[C@@H](CCC(=O)O)C(=O)N[C@@H](C)C(=O)N[C@@H](CCC(=O)O)C(=O)N[C@@H](C)C(=O)N[C@@H](CCCCN)C(=O)N[C@@H](C)C(=O)N[C@@H](CCCCN)C(=O)O
incorporation into fibrils (EAK peptide fibrils; overnight, 37 °C, PBS, with: EAK to compound ratio 5:1): 16%

CC(C)C[C@H](NC(=O)[C@H](CCCCN)NC(=O)[C@H](CCC(=O)O)NC(=O)[C@H](C)NC(=O)[C@@H](NC(=O)[C@H](CCCCN)NC(=O)[C@H](CC(=O)O)NC(=O)[C@H](Cc1ccc(O)cc1)NC(=O)[C@H](Cc1ccccc1)NC(=O)[C@H](C)NC(=O)[C@H](CCCCN)NC(=O)[C@H](CC(C)C)NC(=O)[C@H](Cc1c[nH]c2ccccc12)NC(=O)[C@@H](N)CC(=O)O)C(C)C)C(=O)N[C@@H](CCCCN)C(=O)N[C@@H](CCC(=O)O)C(=O)N[C@@H](C)C(=O)N[C@@H](Cc1ccccc1)C(=O)N1CCC[C@H]1C(=O)N[C@@H](CC(=O)O)C(=O)N[C@@H](Cc1c[nH]c2ccccc12)C(=O)N[C@@H](C)C(=O)N[C@@H](CCCCN)C(=O)N[C@@H](C)C(=O)N[C@@H](C)C(=O)N[C@@H](Cc1ccc(O)cc1)C(=O)N[C@@H](CC(=O)O)C(=O)N[C@@H](CCCCN)C(=O)N[C@@H](C)C(=O)N[C@@H](C)C(=O)N[C@@H](CCC(=O)O)C(=O)N[C@@H](CCCCN)C(=O)N[C@@H](C)C(=O)N[C@@H](CCCCN)C(=O)N[C@@H](CCC(=O)O)C(=O)N[C@@H](C)C(=O)N[C@@H](C)C(=O)O
Cmax (cynomolgus monkey male, plasma; intravenous infusion, 25 mg/kg, day 1, 30 min infusion): 459 µg/mL

COCCOCCOCCOc1ccc(/C=C/C2=[N+]3C(=C(c4cc(OC)cc(OC)c4)c4c(C)c(I)c(/C=C/c5ccc(OCCOCCOCCOC)cc5)n4[B-]3(F)F)C(C)=C2I)cc1
fluorescence quantum yield (THF; relative to: methylene blue): 0.19

CC(C)C[C@@H](NC(=O)[C@@H](C)NC(=O)[C@@H](CC(C)C)NC(=O)[C@@H](CCCCN)NC(=O)[C@H](N)CCCCN)C(=O)N[C@H](Cc1c[nH]cn1)C(=O)N[C@H](C)C(=O)N[C@H](CC(C)C)C(=O)N[C@H](CCCCN)C(=O)N[C@H](CCCCN)C(=O)N[C@H](Cc1c[nH]c2ccccc12)C(=O)N[C@H](CC(C)C)C(=O)N[C@H](Cc1c[nH]cn1)C(=O)N[C@H](C)C(=O)N[C@H](CC(C)C)C(=O)N[C@H](CCCCN)C(=O)N[C@H](CCCCN)C(=O)N[C@H](CC(C)C)C(=O)N[C@H](C)C(=O)N[C@H](Cc1c[nH]cn1)C(=O)N[C@H](CC(C)C)C(=O)N[C@H](C)C(=O)N[C@H](CC(C)C)C(=O)N[C@H](CCCCN)C(=O)N[C@H](CCCCN)C(N)=O
HC50 (haemolysis; human erythrocytes; 30 min, pH 7.4, 37 °C): 20.3 ± 2.42 µM

CN[C@](C)(C[18F])C(=O)O
tissue uptake (SCID mouse A549 xenograft, brain; 60 min, post injection): 0.2 ± 0.1 %ID/g

COc1cc(C(=O)NCCOCCOCCOCCNC(=O)c2ccc([18F])nc2)ccc1NC(=O)C1NC(CC(C)(C)C)C(C#N)(c2ccc(Cl)cc2F)C1c1cccc(Cl)c1F (stereo not drawn)
tumour-to-tissue ratio (athymic male mice, HepG2 xenograft; 2 h; relative to: tumour over muscle): 2.46 ± 0.74

CSCC[C@@H]1NC(=O)[C@@H]2CSSC[C@H](NC(=O)[C@H](CO)NC(=O)[C@H](C)N)C(=O)N[C@@H](CCCNC(=N)N)C(=O)N[C@@H]([C@@H](C)O)C(=O)N3CCC[C@H]3C(=O)N[C@@H](CCCCN)C(=O)N[C@@H](CC(=O)O)C(=O)N[C@H]3CSSC[C@H](NC(=O)[C@H](CCCCN)NC(=O)[C@H](CCCNC(=N)N)NC(=O)[C@H](CC(N)=O)NC1=O)C(=O)N[C@@H](CCCCN)C(=O)N[C@H]1CSSC[C@H](NC(=O)[C@@H]4CCCN4C(=O)[C@H](CC(=O)O)NC(=O)[C@H](C)NC3=O)C(=O)N[C@@H](C)C(=O)N[C@@H](CCCCN)C(=O)N[C@@H](CCC(=O)O)C(=O)N[C@@H]([C@@H](C)O)C(=O)NCC(=O)N[C@@H](CSSC[C@@H](C(N)=O)NC(=O)[C@H](CCCNC(=N)N)NC(=O)[C@H](CC(N)=O)NC1=O)C(=O)N1CCC[C@H]1C(=O)N[C@@H](Cc1ccc(O)cc1)C(=O)NCC(=O)N[C@@H](CCCCN)C(=O)N2
creatine kinase (DA rat, pristane-induced arthritis, serum; subcutaneous, 0.1 mg/kg once weekly, end of 21-day trial): 314 U/L

CC(C)[C@H](NC(=O)CNC(=O)[C@H](CCC(N)=O)NC(=O)[C@H](C)N)C(=O)O
subjects with moderate AE (healthy male volunteers; intravenous, 45 mg/kg/h, 2 h, with: LPS 2 ng/kg): 0%

COc1ccc(C)cc1NC(=O)OC1CC2CCCC(C1)N2Cc1ccc(CC[18F])cc1 (stereo not drawn)
tracer uptake (mouse, blood; 2 h, tumour-bearing): 0.59 %ID/g

CN(C)C(CNC(=O)Nc1cc(C(F)(F)F)ccc1N1CCOCC1)c1ccncc1 (stereo not drawn)
serum chloride (mouse, serum; intraperitoneal, 240 mg/kg single dose): 111 mmol/L

N=C(N)NCc1ccc(C(=O)NCCCC[C@H](NC(=O)CCCCCCC(=O)NCCCC[C@H](NC(=O)N[C@@H](CCC(=O)O)C(=O)O)C(=O)O)C(=O)O)cc1[131I]
tissue uptake (SCID mouse, PC-3 xenografts, stomach; 2 h): 1.03 ± 0.62 %ID/g

COC(=O)C[C@H](NC(=O)[C@H](C)NC(=O)[C@@H](NC(=O)[C@H](CC(=O)OC)NC(=O)[C@@H](NC(=O)c1ccc2ccccc2n1)C(C)C)C(C)C)C(=O)COc1c(F)cccc1F
left ventricular end-diastolic diameter (echography; rat pups; 1 mg/kg, 1 h): 0.31 ± 0.015 mm

CCCCCCCC/C=C\CCCCCCCCOP(O)(O)=S.N
CL/F (mouse, female, nonirradiated; subcutaneous, single dose): 868 mL/h/kg

Cc1cc(Nc2nc(C[C@@]3(C(=O)O)CCN(Cc4cccc(Cl)c4F)[C@H](C)C3)cc(C)c2F)n[nH]1
clearance (beagle dog, plasma; intravenous, 1 mg/kg, single dose): 3.96 mL/min/kg

CC[C@H](C)C(=O)N1CCC(NC(=O)Nc2ccc(OC(F)(F)F)c(F)c2)CC1
half-life (human; oral, 8 mg, fed and fasted): 2 to 2.5 days

NC(=O)[C@H](Cc1ccccc1)N[11C](=O)OCc1ccccc1
SUV max (binding, dynamic PET; Wistar rat, male, brain; intravenous, 3 min, with: self-blocking, 3 µmol/kg unlabelled analogue, 3 min before): 2

CC[C@H](C)[C@H](NC(=O)[C@H](C)NC(=O)CNC(=O)[C@@H](N)CCSC)C(=O)N[C@@H](C)C(=O)N[C@@H](CCCCN)C(=O)N[C@@H](CC(C)C)C(=O)N[C@H](C(=O)N[C@@H](C)C(=O)N[C@@H](CCCCN)C(=O)N[C@@H](Cc1ccccc1)C(=O)NCC(=O)N[C@@H](Cc1c[nH]c2ccccc12)C(=O)N1CCC[C@H]1C(=O)N[C@@H](Cc1ccccc1)C(=O)N[C@H](C(=O)N[C@@H](CCCCN)C(=O)N[C@@H](CCCCN)C(=O)N[C@@H](Cc1ccccc1)C(=O)N[C@@H](Cc1ccc(O)cc1)C(=O)N[C@@H](CCCCN)C(=O)N[C@@H](CCC(N)=O)C(=O)N[C@H](C(=O)N[C@@H](CCSC)C(=O)N[C@@H](CCC(N)=O)C(=O)N[C@@H](CCCNC(=N)N)C(=O)N[C@H](C(=O)NCC(=O)N[C@@H](CCC(N)=O)C(=O)NCC(=O)N[C@@H](Cc1c[nH]c2ccccc12)C(=O)N[C@H](C(=O)N[C@H](C(=O)N[C@@H](CC(=O)O)C(=O)N[C@@H](CCC(N)=O)C(=O)N[C@H](C(=O)N[C@@H](CCC(=O)O)C(=O)N[C@@H](CCCCN)C(=O)N[C@@H](Cc1c[nH]c2ccccc12)C(=O)N[C@@H](CC(C)C)C(=O)N[C@@H](CCCCN)C(=O)N[C@@H](CCCNC(=N)N)C(=O)N[C@@H](Cc1c[nH]cn1)C(=O)O)[C@@H](C)CC)[C@@H](C)CC)[C@@H](C)O)[C@@H](C)CC)[C@@H](C)CC)[C@@H](C)CC)C(C)C
Tm (thermal unfolding, far-UV CD; 10 mM sodium phosphate; 5-20 µM, pH 7.2): 49.1 ± 0.4 °C

CC[C@H](C)[C@H](NC(=O)[C@H](CCC(=O)O)NC(=O)[C@H](CCC(=O)O)NC(=O)[C@H](Cc1ccccc1)NC(=O)[C@H](CC(=O)O)NC(=O)CNC(=O)[C@H](CC(N)=O)NC(=O)CNC(=O)CNC(=O)CNC(=O)CNC(=O)[C@@H]1CCCN1C(=O)[C@H](CCCNC(=N)N)NC(=O)[C@@H]1CCCN1C(=O)[C@H](N)Cc1ccccc1)C(=O)N1CCC[C@H]1C(=O)N[C@@H](CCC(=O)O)C(=O)N[C@@H](CCC(=O)O)C(=O)N[C@@H](Cc1ccc(O)cc1)C(=O)N[C@@H](CC(C)C)C(=O)O
concentration (LC-MS/MS; processed plasma samples; 7 h, autosampler stability, nominal 30.0 ng/mL): 29.9 ± 0.9 ng/mL

O=C(O)CCn1c(=O)oc2cc(Cl)c(Cl)cc21
t1/2 (rat, plasma; intravenous, 27 mg/kg): 180 min

O=C([O-])C[N+]12CC(=O)[O][Re-2]1[O]P(=O)([O-])C2.[C-]#[O+].[C-]#[O+].[C-]#[O+] (stereo not drawn)
isomer fraction at equilibrium (HPLC; aqueous solution; 1 d, pH 11, room temperature): 59%

CC(C)[C@H](NC(=O)[C@@H](NC(=O)[C@H](CCCNC(=N)N)NC(=O)[C@H](CCCNC(=N)N)NC(=O)[C@H](CCCNC(=N)N)NC(=O)[C@H](CCC(N)=O)NC(=O)[C@H](CCCNC(=N)N)NC(=O)[C@H](CCCNC(=N)N)NC(=O)[C@H](CCCCN)NC(=O)[C@H](CCCCN)NC(=O)[C@H](CCCNC(=N)N)NC(=O)CN)[C@@H](C)O)C(=O)N[C@H](C(=O)N[C@@H](CO)C(=O)N1CCC[C@H]1C(=O)O)[C@@H](C)O
day of death (mouse ICR, female; intranasal, 500 mg/kg single): 5 days

Some of these lines once more:
COCCOCCOCCOc1ccc(/C=C/C2=[N+]3C(=C(c4cc(OC)cc(OC)c4)c4c(C)c(I)c(/C=C/c5ccc(OCCOCCOCCOC)cc5)n4[B-]3(F)F)C(C)=C2I)cc1
fluorescence quantum yield (THF; relative to: methylene blue): 0.19

COc1ccc(C)cc1NC(=O)OC1CC2CCCC(C1)N2Cc1ccc(CC[18F])cc1 (stereo not drawn)
tracer uptake (mouse, blood; 2 h, tumour-bearing): 0.59 %ID/g
